# Experimental data gathered from unrelated publications.
# Protocols differ between the studies behind these lines. Values joined by “and” are separate records of one study, mostly repeats; a detail may differ. ± gives the spread as reported.
# CASP8: Caspase-8 (CASP8, Homo sapiens, UniProt Q14790)
# DCPS: m7GpppX diphosphatase (DCPS, Homo sapiens, UniProt Q96C86)
# TARDBP aggregated: TAR DNA-binding protein 43, aggregated (TARDBP, Homo sapiens, UniProt Q13148)
SMILES,tested on,assay,system,conditions,scale,measurement,value
CC(=O)N[C@@H](CC(C)C)C(=O)N[C@@H](CCC(=O)O)C(=O)N[C@@H](COCc1ccccc1)C(=O)N[C@@H](CC(=O)O)C(=O)COC(=O)c1c(C)cccc1C,CASP8,"enzyme activity, inhibitor",,,,kinact/KI,1.3e+06 M⁻¹ s⁻¹
CC1(C)C[C@@H](Nc2cccc(-c3sc(C(=O)O)c(OCC(=O)O)c3Cl)c2)CCN1S(=O)(=O)Cc1cccc(NC(=O)CN2CCC(c3ccc4c(c3)oc(=O)n4C3CCC(=O)NC3=O)CC2)c1 (stereo partly shown),"Tyrosine-protein phosphatase non-receptor type 2 (PTPN2, Homo sapiens, UniProt P17706)","degrader, bio-layer interferometry",,"500 nM, biotinylated protein immobilised",higher = more binding,BLI binding response,0.506 a.u. and 0.491 a.u.
Cc1cc(=O)oc2cc(NC(=O)CCCCCCCC(=O)NO)ccc12,"Histone deacetylase 8 (HDAC8, Homo sapiens, UniProt Q9BY41)",ITC,Tris-HCl buffer,278 K,,TΔS°,5.1 kcal/mol
CC(=O)N[C@@H](CC(C)C)C(=O)N[C@@H](CCC(=O)O)C(=O)N[C@@H](CCC1CCCCC1)C(=O)N[C@@H](CC(=O)O)C(=O)COC(=O)c1c(C)cccc1C,"Caspase-10 (CASP10, Homo sapiens, UniProt Q92851)","enzyme activity, inhibitor",,,,kinact/KI,312000 M⁻¹ s⁻¹
Cc1ccc(C(=O)Nc2ccc(CN3CCN(C)CC3)c(C(F)(F)F)c2)cc1C#Cc1cnc2cccnn12,"Non-receptor tyrosine-protein kinase TYK2 (TYK2, Homo sapiens, UniProt P29597)","target engagement, NanoBRET",human cells,,,Hill slope,0.818
N[C@H]1CC[C@H](Nc2nccc(-c3cccnc3Oc3ccc(NC(=O)NC4CC4)c4ccccc34)n2)CC1,"5'-AMP-activated protein kinase subunit gamma-1 (PRKAG1, Homo sapiens, UniProt P54619)",kinobead competition pulldown,HEK293/HCT116 lysate mixture,"10 µM, 1 h, 4 °C",lower = stronger competition,log2 LFQ intensity,27.8 and 28.2 and 28.1
C#CCOC(=O)[C@@]1(C)C=C(C(=O)OC(C)(C)C)C(=O)CC1,"Mitogen-activated protein kinase 8 (MAPK8, Homo sapiens, UniProt P45983)","enzyme activity, D-SENSOR",,"44.44 µM, single replicate",,normalized kinase activity,0.753 and 0.78 and 0.678
CC[C@H](C)[C@@H]1NC(=O)[C@H](Cc2ccccc2)NC(=O)[C@H](CCC(=O)O)NC(=O)[C@H](CCCNC(=N)N)NC(=O)CNC(=O)[C@@H](NC(=O)[C@H](CC(C)C)NC(=O)[C@H](CCCNC(=N)N)NC(=O)[C@@H](NC(=O)CNC(=O)[C@H](Cc2ccc(O)cc2)NC(=O)[C@@H]2CCCN2C(=O)[C@H](C)NC(=O)[C@H](C)NC(=O)[C@@H](N)CCCNC(=N)N)C(C)C)CSSC[C@@H]2NC(=O)[C@@H](NC(=O)[C@H](CO)NC(=O)[C@H](CO)NC(=O)[C@H](CO)NC(=O)[C@H](CC(C)C)NC(=O)CNC(=O)[C@H](C)NC(=O)[C@H](CC(C)C)NC(=O)[C@@H](NC(=O)[C@@H](N)CC(=O)O)C(C)C)CSSC[C@H](NC(=O)CNC(=O)[C@H](Cc3c[nH]c4ccccc34)NC(=O)[C@H](CCCCN)NC2=O)C(=O)N[C@@H](CO)C(=O)N[C@@H](CCCCN)C(=O)N[C@@H](CO)C(=O)N[C@@H](CCC(=O)O)C(=O)N[C@@H]([C@@H](C)CC)C(=O)N[C@@H](CO)C(=O)N[C@@H](CO)C(=O)N[C@@H](CC(C)C)C(=O)N[C@H](C(=O)O)CSSC[C@@H](C(=O)NCC(=O)NCC(=O)N[C@@H](CO)C(=O)N[C@@H](CCCNC(=N)N)C(=O)N[C@@H](Cc2c[nH]c3ccccc23)C(=O)O)NC(=O)[C@H]([C@@H](C)O)NC(=O)[C@H](Cc2ccccc2)NC(=O)[C@H]([C@@H](C)CC)NC(=O)[C@H](C(C)C)NC(=O)[C@H](C)NC(=O)[C@H](CCCNC(=N)N)NC1=O,"Relaxin-3 receptor 1 (RXFP3, Homo sapiens, UniProt Q9NSD7, H379A)",,HEK-293T,,reference: wild type,Emax,62.4 ± 3.21%
CC(=O)N[C@@H](CC(=O)O)C(=O)N[C@@H](CCCC(=O)O)C(=O)N1[C@H](C(=O)N[C@@H](CC(=O)O)C(=O)COC(=O)c2c(C)cccc2C)C[C@@H]2CCCC[C@@H]21,CASP8,"enzyme activity, inhibitor",,,,kinact/KI,832000 M⁻¹ s⁻¹
COC1CN([C@H]2CC[C@H]([C@@]3(C)Oc4c(Cl)cc(C(=O)NCc5c(SC)cc(C)[nH]c5=O)c(C)c4O3)CC2)C1,,"RNA-seq, item: PITHD1","human, whole blood","dose not given, 24 h",reference: pretreatment baseline,log2 fold change,1.43
CC[C@H](C)[C@H](NC(=O)[C@@H](NC(=O)[C@@H](NC(=O)[C@@H](NC(=O)[C@H](CCCCN)NC(=O)[C@H](CCC(=O)O)NC(=O)[C@H](C)N)C(C)C)C(C)C)C(C)C)C(=O)N[C@H](C(=O)N[C@@H](CCCCN)C(N)=O)[C@@H](C)O,"Microtubule-associated protein tau, PHF6* peptide (MAPT, Homo sapiens, UniProt P10636)","fibril formation, ThT fluorescence",,"0.1-fold of peptide, pH 7.4, added: Ac-PHF6* 25 µM, heparin",reference: untreated,ThT fluorescence,105 ± 4%
CC(C)Oc1cc(Cl)ccc1CNc1cc(-c2ccccc2)nc2ncnn12,"G-protein coupled receptor 3 (GPR3, Homo sapiens, UniProt P46089, V196W)","cAMP level, cAMP GloSensor",,100 nM,higher = more cAMP,cAMP luminescence,51500 a.u. and 47500 a.u. and 32900 a.u. and 31600 a.u.
CN(C)Cc1cc(-c2coc3cc(O)ccc3c2=O)ccc1Cl,"3 beta-hydroxysteroid dehydrogenase/Delta 5-->4-isomerase type 1 (HSD3B1, Homo sapiens, UniProt P14060)",[3H]-DHEA conversion,LNCaP,"0.1 µM, normalized to protein, unit not given",reference: vehicle,DHEA metabolism,2.1
Cc1ncsc1-c1ccc(C(C)NC(=O)C2CC(O)CN2C(=O)C(NC(=O)CCCCCCCCCCN2CCCC(Nc3ncc(Cl)c(Nc4ccccc4S(=O)(=O)C(C)C)n3)C2)C(C)(C)C)cc1 (stereo not shown),22Rv1,"RNA-seq, item: NCOA5 mRNA",,concentration not given,reference: DMSO,log2 fold change,-1.09
N=C(N)NCCS(=O)(=O)O,"Sodium- and chloride-dependent taurine transporter (SLC6A6, Homo sapiens, UniProt P31641, G62A)","binding, microscale thermophoresis",,"61 nM, room temperature, added: 50 nM labelled protein",higher = more binding,normalised MST signal,0.0314
CC(O)CNc1cc(=O)oc2ccccc12 (stereo not shown),"Alpha-1A adrenergic receptor (ADRA1A, Homo sapiens, UniProt P35348)","intracellular Ca2+ mobilization, agonist",COS-7,500 µM,reference: 3 µM ionomycin,agonist activity,13.2 ± 1.16%
CCCC[C@H](NC(C)=O)C(=O)N[C@@H](CCCC(=O)O)C(=O)N1CCC[C@H]1C(=O)N[C@@H](CC(=O)O)C(=O)COC(=O)c1c(C)cccc1C,CASP8,"enzyme activity, inhibitor",,,,kinact/KI,2.28e+06 M⁻¹ s⁻¹
CCCCCCCO[C@H]1O[C@H](CO)[C@@H](O)[C@H](O)[C@@H]1O,"Type 1 fimbrin D-mannose specific adhesin, lectin domain (fimH, Escherichia coli K-12, UniProt P08191)","binding, isothermal titration calorimetry",,"37 °C, individual direct titrations",,ΔG,-10.6 kcal/mol and -10.5 kcal/mol
Nc1ncc(-c2cc(-c3cnn(CC(F)(F)F)c3)ncc2F)nc1C(=O)NC1CNCC(F)C1 (stereo not shown),ASK2,KINOMEscan,,1 µM,reference: DMSO control,remaining binding,82%
CCCCCC(O)/C=C/C=O (stereo not shown),"S-formylglutathione hydrolase (Homo sapiens, UniProt P10768)","acylphosphate-ATP probe SILAC-ABPP, item: ESD",ZAK-transfected HEK293T,"100 µM, added: acylphosphate-ATP probe",reference: DMSO over compound-treated,probe labelling ratio,0.61
C=C1C(=O)C2(C(=O)N3CCN(c4ccc(Br)cc4)CC3)CC(=O)CC1C2 (racemic),"Tyrosine-protein phosphatase non-receptor type 11 (PTPN11, Homo sapiens, UniProt Q06124)","phosphatase activity, irreversible inhibitor",,added: pNPP,,kinact/KI,367 M⁻¹ s⁻¹
C[n+]1cn([C@@H]2O[C@H](COP(=O)([O-])OP(=O)(O)CP(=O)(O)O)[C@@H](O)[C@H]2O)c2nc(N)nc(O)c21,DCPS,"substrate, HPLC",,"concentration not given, 30 min",,hydrolysis,0%
O=C1c2sc(-c3ccc(N4CCC(CO)CC4)nc3F)nc2CCN1c1cccnc1,TARDBP aggregated,radioligand binding,control brain sarkosyl-insoluble extract,200 nM,,specific binding,0.274 nM
CCCCCCCCCCCCC/C=C/C=O,"Bleomycin hydrolase (Homo sapiens, UniProt Q13867)",competitive isoTOP-ABPP,"proteome, soluble, MDA-MB-231","100 µM, 60 min, added: iodoacetamide probe","reference: DMSO over compound-treated, higher = stronger cysteine blockade",isoTOP-ABPP competition ratio,1
O=C1c2sc(-c3ccc(N4CCC(F)C4)nc3F)nc2CCN1c1cccnc1 (stereo not shown),TARDBP aggregated,radioligand binding,"human, FTLD-TDP type B extract",added: radioligand 13.55 nM,,specific binding,2.19 nM and 2.22 nM
N#Cc1cnc2sc(C(=O)O)cc2c1N1CCc2[nH]nc(C(=O)N[C@@H](CC(=O)NCCOCCN3CCOCC3)c3cccc(Br)c3)c2C1,"Interleukin-1 receptor type 1 (IL1R1, Homo sapiens, UniProt P14778)","SEAP reporter gene, antagonist",HEK-Blue IL-36R cells,"3.7 µM, 6 h, added: IL-1β 5 ng/mL",reference: untreated,remaining activity,101%
C[Si](C)(C)C[C@@H](CN)CC(=O)O,"L-type calcium channel, rat","binding, radioligand binding",,"75 µM, added: [3H]diltiazem",,inhibition,8%
C[n+]1cn([C@@H]2O[C@H](COP(=O)(O)OP(=O)([O-])C(F)(F)P(=O)(O)O)[C@@H](O)[C@H]2O)c2nc(N)nc(O)c21,DCPS,"substrate, HPLC",,"concentration not given, 120 min",,hydrolysis,14.4 ± 0.6%
Cc1cn(CC(=O)N(CC(=O)N[C@H]2CCC[C@@H]2N(CC(=O)N[C@H]2COC[C@@H]2N(CC(=O)N[C@H]2COC[C@@H]2N(CC(=O)N[C@H]2COC[C@@H]2N(CC(=O)NCCOCCOCC(N)=O)C(=O)Cn2cnc3c(N)ncnc32)C(=O)Cn2cc(C)c(=O)[nH]c2=O)C(=O)Cn2cnc3c(N)ncnc32)C(=O)Cn2cnc3c(=O)[nH]c(N)nc32)[C@H]2CCC[C@@H]2NC(=O)CN(C(=O)Cn2cnc3c(=O)[nH]c(N)nc32)[C@H]2CCC[C@@H]2NC(=O)CN(C(=O)Cn2cc(C)c(=O)[nH]c2=O)[C@H]2COC[C@@H]2NC(=O)CN(C(=O)Cn2cnc3c(N)ncnc32)[C@H]2COC[C@@H]2NC(=O)CN(C(=O)Cn2cnc3c(=O)[nH]c(N)nc32)[C@H]2COC[C@@H]2N)c(=O)[nH]c1=O,complementary DNA,"duplex formation, UV melting curve fit",PBS,1 µM,,ΔS,-186 ± 5 cal/mol/K
CC[C@H](C)[C@H](NC(=O)[C@@H](NC(=O)[C@@H](NC(=O)[C@@H](NC(=O)[C@@H](N)CCCCN)C(C)C)C(C)C)C(C)C)C(=O)N[C@H](C(N)=O)[C@@H](C)O,"Microtubule-associated protein tau (MAPT, Homo sapiens, UniProt P10636)","fibril formation, ThT fluorescence",,"0.1-fold of tau, 37 °C, added: wild-type tau 10 µM, heparin",reference: untreated,aggregation half-time,69 ± 10%
Cc1cc(C)cc(COc2cc3c(cc2OCc2cc(C)cc(C)c2)C2CC(O)(Cc4cn(CCOCCOCCNC(=O)CCCCC5SCC6NC(=O)NC65)nn4)CC(C)N2CC3)c1 (stereo not shown),"Importin subunit alpha-1 (Homo sapiens, UniProt P52292)","biotinylated probe pull-down, item: KPNA2",,10 µM probe,reference: heavy over light,SILAC ratio,1.7

# Repeated from above:
SMILES,tested on,assay,system,conditions,scale,measurement,value
CC(=O)N[C@@H](CC(C)C)C(=O)N[C@@H](CCC(=O)O)C(=O)N[C@@H](COCc1ccccc1)C(=O)N[C@@H](CC(=O)O)C(=O)COC(=O)c1c(C)cccc1C,CASP8,"enzyme activity, inhibitor",,,,kinact/KI,1.3e+06 M⁻¹ s⁻¹
CC1(C)C[C@@H](Nc2cccc(-c3sc(C(=O)O)c(OCC(=O)O)c3Cl)c2)CCN1S(=O)(=O)Cc1cccc(NC(=O)CN2CCC(c3ccc4c(c3)oc(=O)n4C3CCC(=O)NC3=O)CC2)c1 (stereo partly shown),"Tyrosine-protein phosphatase non-receptor type 2 (PTPN2, Homo sapiens, UniProt P17706)","degrader, bio-layer interferometry",,"500 nM, biotinylated protein immobilised",higher = more binding,BLI binding response,0.506 a.u. and 0.491 a.u.
Cc1cc(=O)oc2cc(NC(=O)CCCCCCCC(=O)NO)ccc12,"Histone deacetylase 8 (HDAC8, Homo sapiens, UniProt Q9BY41)",ITC,Tris-HCl buffer,278 K,,TΔS°,5.1 kcal/mol
CC(=O)N[C@@H](CC(C)C)C(=O)N[C@@H](CCC(=O)O)C(=O)N[C@@H](CCC1CCCCC1)C(=O)N[C@@H](CC(=O)O)C(=O)COC(=O)c1c(C)cccc1C,"Caspase-10 (CASP10, Homo sapiens, UniProt Q92851)","enzyme activity, inhibitor",,,,kinact/KI,312000 M⁻¹ s⁻¹
Cc1ccc(C(=O)Nc2ccc(CN3CCN(C)CC3)c(C(F)(F)F)c2)cc1C#Cc1cnc2cccnn12,"Non-receptor tyrosine-protein kinase TYK2 (TYK2, Homo sapiens, UniProt P29597)","target engagement, NanoBRET",human cells,,,Hill slope,0.818
